Assay results from different studies.
Numbers after ± are the reported error.

For CCC(C)n1ncn(-c2ccc(N3CCN(c4ccc(OCC5COC(Cn6cncn6)(c6ccc(Cl)cc6Cl)O5)cc4)CC3)cc2)c1=O (stereo not drawn), the EC50 was 770 ± 110 nM (CVA21; viral replication; 72 h).
O=c1[nH]c(=O)n([C@H]2C[C@H](O)[C@@H](CO)O2)cc1/C=C/Br gave an EC50 of 270 nM (varicella-zoster virus; viral replication; HEL, Oka TK+).
With COC(=O)N[C@H](C(=O)N1CCC[C@H]1c1ncc(-c2ccc(-c3ccc(-c4cnc([C@@H]5CCCN5C(=O)[C@@H](NC(=O)OC)C(C)C)[nH]4)cc3)cc2)[nH]1)C(C)C the EC50 was 0.0035 to 0.02 nM (Hepatitis C virus; replicon replication, transient replicon; Huh-7, genotype 2a JFH-1).
For Nc1ccn(C[C@@H](CO)OCP(=O)(O)O)c(=O)n1, the EC50 was 1000 nM (herpes simplex virus 2; viral cytopathic effect; HEL, G).
With CNCC(=O)N[C@@H](CO)C(=O)N[C@H]1[C@H](O)[C@@H](O)[C@H](n2ccc(N)nc2=O)O[C@@H]1C(N)=O the EC50 was 331 ± 2.8 µg/mL (tobacco mosaic virus; curative activity; in vivo plant).
With O=c1[nH]c(=O)n([C@H]2C[C@H](O)[C@@H](CO)O2)cc1/C=C/Br the EC50 was 42 nM (varicella-zoster virus; plaque formation; HEL, Oka, TK+).
COCC(=O)N1CCC[C@H](C(=O)NCc2nc(-c3ccccc3)cs2)C1 gave an EC50 of over 50000 nM (Plasmodium falciparum; Dd2 β5 S27F CRISPR-edited).
For CCC(C(=O)Nc1sc(C(N)=O)c(C)c1C(=O)OC)c1ccc(F)cc1 (stereo not drawn), the EC50 was over 100000 nM (human alphaherpesvirus 1; viral replication; Vero; 53 h).
C[C@H]1CN(c2n[nH]c3nc(N[C@H]4CC[C@H](NS(=O)(=O)CCC(F)(F)F)CC4)ncc23)CCO1 has an EC50 of 7 ± 0.09 nM (Leishmania donovani; cell growth; promastigotes, LdBOB CRK6 single knockout).
Nc1ccn(C[C@@H](CO)OCP(=O)(O)O)c(=O)n1 gave an EC50 of 2000 nM (human alphaherpesvirus 1; virus-induced cytopathogenicity; HEL, KOS TK- acyclovir-resistant).
Cn1c([N+](=O)[O-])cnc1COc1ccc(S(C)(=O)=O)cc1 has an EC50 of 8100 ± 100 nM (Leishmania donovani; LdBOB wild-type promastigotes).
With C[C@H](Cn1cnc2c(N)ncnc21)OCP(=O)(O)O the EC50 was 2060 nM (HIV-2; viral cytopathic effect; MT-4, ROD).

For quick reference, copied from above:
With O=c1[nH]c(=O)n([C@H]2C[C@H](O)[C@@H](CO)O2)cc1/C=C/Br the EC50 was 42 nM (varicella-zoster virus; plaque formation; HEL, Oka, TK+).
With C[C@H](Cn1cnc2c(N)ncnc21)OCP(=O)(O)O the EC50 was 2060 nM (HIV-2; viral cytopathic effect; MT-4, ROD).
